# Results of several laboratories.
# Each numbered part is a random draw from the data of one study; scales do not carry over between parts. Several values in a cell are separate wells, animals, samples, runs or records.
# Sequence of UniProt Q96L34 (whole entry, looked up): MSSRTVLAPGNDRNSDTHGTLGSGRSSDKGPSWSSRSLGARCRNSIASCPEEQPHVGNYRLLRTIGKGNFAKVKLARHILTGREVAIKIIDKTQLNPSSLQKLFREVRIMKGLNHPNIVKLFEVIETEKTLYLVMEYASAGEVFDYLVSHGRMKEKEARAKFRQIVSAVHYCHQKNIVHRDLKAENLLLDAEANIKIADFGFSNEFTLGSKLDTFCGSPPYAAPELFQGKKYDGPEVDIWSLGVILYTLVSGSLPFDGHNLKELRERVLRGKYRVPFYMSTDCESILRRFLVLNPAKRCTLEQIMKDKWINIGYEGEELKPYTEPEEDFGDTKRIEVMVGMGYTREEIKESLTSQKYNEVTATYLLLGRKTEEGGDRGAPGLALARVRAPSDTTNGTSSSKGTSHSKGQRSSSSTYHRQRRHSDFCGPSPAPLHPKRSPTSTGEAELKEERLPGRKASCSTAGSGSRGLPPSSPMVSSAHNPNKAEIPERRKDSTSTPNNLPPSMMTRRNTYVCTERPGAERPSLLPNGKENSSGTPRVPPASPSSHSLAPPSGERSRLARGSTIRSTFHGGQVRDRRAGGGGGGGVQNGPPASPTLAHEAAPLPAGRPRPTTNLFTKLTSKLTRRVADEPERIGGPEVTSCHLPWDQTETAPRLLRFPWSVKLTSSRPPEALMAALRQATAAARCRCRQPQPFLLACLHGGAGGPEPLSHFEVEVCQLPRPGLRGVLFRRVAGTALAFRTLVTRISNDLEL
# Sequence of UniProt Q13873 (whole entry, looked up): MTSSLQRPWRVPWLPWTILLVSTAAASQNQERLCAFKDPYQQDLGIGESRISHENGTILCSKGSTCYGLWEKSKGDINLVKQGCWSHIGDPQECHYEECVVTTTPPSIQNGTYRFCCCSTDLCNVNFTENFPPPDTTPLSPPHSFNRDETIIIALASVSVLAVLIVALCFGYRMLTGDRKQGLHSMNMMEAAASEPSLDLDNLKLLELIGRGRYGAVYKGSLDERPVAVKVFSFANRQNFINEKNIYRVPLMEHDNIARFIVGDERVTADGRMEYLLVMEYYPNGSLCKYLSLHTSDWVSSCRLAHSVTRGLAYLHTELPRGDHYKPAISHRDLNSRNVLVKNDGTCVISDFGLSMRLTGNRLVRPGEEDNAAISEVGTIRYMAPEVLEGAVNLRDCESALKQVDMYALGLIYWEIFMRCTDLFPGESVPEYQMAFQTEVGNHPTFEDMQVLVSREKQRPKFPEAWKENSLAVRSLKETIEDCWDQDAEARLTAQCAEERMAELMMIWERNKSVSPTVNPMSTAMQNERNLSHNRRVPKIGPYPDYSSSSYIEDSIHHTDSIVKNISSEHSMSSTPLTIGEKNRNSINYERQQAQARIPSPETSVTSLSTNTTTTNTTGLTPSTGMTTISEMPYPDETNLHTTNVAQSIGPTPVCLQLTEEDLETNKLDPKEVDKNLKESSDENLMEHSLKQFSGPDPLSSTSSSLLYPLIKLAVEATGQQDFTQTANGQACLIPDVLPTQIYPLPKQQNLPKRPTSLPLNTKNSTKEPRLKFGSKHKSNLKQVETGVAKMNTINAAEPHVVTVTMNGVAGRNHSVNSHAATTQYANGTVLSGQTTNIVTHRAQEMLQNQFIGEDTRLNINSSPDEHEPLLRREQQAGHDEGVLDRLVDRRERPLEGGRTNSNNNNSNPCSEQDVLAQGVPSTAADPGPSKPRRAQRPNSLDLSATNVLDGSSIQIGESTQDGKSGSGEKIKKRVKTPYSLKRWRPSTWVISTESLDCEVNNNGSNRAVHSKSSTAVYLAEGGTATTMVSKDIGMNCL
# Sequence of UniProt P53671 (whole entry, looked up): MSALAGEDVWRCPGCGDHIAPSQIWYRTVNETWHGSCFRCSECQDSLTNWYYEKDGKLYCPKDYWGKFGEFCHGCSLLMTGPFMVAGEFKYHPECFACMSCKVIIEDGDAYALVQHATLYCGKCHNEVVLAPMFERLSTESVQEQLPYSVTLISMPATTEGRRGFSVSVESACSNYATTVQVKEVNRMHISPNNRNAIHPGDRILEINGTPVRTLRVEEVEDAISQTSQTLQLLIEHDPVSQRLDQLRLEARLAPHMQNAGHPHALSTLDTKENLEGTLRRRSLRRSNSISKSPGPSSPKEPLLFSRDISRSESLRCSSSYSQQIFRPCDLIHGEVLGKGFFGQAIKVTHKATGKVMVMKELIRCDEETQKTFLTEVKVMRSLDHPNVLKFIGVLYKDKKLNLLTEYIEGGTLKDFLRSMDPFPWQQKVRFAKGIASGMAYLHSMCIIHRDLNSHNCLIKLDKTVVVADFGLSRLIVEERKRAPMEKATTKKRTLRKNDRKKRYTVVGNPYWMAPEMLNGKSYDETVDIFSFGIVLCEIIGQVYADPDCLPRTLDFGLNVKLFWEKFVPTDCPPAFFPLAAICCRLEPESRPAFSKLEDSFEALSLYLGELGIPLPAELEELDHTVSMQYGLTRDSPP
# Sequence of UniProt Q9NSY1 (whole entry, looked up): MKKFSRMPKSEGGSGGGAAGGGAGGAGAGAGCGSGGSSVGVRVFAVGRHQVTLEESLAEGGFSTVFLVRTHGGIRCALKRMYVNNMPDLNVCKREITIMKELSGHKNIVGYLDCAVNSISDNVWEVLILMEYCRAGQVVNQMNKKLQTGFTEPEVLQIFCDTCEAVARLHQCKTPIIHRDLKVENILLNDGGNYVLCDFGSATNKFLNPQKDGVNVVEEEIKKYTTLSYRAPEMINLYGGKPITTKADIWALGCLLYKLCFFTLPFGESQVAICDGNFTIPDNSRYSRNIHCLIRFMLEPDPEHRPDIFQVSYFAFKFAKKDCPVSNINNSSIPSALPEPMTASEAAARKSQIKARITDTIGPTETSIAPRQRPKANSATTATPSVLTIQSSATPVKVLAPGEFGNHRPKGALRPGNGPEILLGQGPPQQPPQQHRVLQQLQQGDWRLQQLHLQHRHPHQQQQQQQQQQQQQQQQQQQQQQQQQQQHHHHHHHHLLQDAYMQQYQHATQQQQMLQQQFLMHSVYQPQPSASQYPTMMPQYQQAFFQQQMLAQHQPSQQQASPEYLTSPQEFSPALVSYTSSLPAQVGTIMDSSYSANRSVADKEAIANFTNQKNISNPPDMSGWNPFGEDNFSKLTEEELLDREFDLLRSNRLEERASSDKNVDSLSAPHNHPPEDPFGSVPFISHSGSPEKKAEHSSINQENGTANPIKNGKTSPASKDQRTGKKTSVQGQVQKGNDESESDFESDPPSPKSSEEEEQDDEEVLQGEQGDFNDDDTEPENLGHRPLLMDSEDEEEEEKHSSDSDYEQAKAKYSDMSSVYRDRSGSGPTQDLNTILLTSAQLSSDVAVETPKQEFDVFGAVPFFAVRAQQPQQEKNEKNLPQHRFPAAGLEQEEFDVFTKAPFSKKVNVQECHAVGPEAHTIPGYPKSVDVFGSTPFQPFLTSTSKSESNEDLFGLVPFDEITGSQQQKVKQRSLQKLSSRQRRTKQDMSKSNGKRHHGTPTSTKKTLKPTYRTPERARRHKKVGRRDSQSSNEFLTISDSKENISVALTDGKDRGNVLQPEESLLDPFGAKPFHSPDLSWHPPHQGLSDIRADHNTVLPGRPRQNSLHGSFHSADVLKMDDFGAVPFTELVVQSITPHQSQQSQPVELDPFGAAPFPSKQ

# Sample 1
# Target: Maternal embryonic leucine zipper kinase (MELK, Homo sapiens, UniProt Q14680)
# Sequence of UniProt Q14680 (whole entry, looked up): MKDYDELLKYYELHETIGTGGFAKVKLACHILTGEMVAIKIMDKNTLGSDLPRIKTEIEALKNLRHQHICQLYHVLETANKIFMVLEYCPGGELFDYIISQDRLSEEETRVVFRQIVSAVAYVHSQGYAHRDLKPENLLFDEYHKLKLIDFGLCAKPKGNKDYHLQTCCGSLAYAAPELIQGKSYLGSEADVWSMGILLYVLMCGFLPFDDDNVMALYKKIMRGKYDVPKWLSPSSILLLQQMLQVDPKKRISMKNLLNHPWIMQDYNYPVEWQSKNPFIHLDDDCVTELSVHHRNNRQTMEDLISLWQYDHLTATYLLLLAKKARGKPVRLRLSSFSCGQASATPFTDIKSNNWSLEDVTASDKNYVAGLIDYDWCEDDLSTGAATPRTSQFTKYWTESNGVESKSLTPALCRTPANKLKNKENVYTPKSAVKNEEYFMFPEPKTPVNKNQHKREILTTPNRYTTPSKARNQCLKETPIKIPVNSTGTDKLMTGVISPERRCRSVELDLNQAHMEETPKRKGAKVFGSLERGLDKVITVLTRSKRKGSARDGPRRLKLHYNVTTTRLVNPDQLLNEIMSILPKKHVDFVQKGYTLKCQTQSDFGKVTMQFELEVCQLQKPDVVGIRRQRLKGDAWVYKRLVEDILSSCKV
# Effect on: enzyme activity
# Action: inhibitor
# Tested at: 0.5 µM
# Relative to: control
SMILES,remaining activity [%]
CC(C)[C@H](CO)Nc1nc(Nc2cc(N)cc(Cl)c2)c2ncn(C(C)C)c2n1,51.5
O=C(O)c1ccc2c3c1cccc3c(=O)n1c3ccccc3nc21,97
O=C1NC(=O)C(c2cn(CCCn3ccnc3)c3ccccc23)=C1Nc1ccccc1,101
Nc1[nH]nc2nc3ccccc3nc12,92.9
Cc1cccc(-c2[nH]c(C(C)(C)C)nc2-c2ccc3c(c2)OCO3)n1,92.7
Nc1ncnc2n[nH]c(Nc3ccc(F)cc3)c12,97.7
Cc1nc(-c2ccccc2)c(-c2ccncc2)o1,105
O=C(CCCc1ccc(-c2ccccc2F)cc1)Nc1ccc(O)cc1,95.5
CCOC(=O)c1c(C)[nH]c(/C=C2\C(=O)Nc3ccccc32)c1C,87.4
COc1ccc(C(=O)Nc2sc3c(c2C(N)=O)CCCC3)cc1OC,46
Oc1ccc(-c2nc(-c3ccncc3)c(-c3ccc(F)cc3)[nH]2)cc1,102
OCC(O)CCON=C1C(c2c(O)[nH]c3ccccc23)=Nc2ccccc21 (stereo not shown),13.1
Cn1sc(=O)n(Cc2ccccc2)c1=O,99.3
O=c1c2ccccc2[nH]c(=S)n1CCN1CCC(=C(c2ccc(F)cc2)c2ccc(F)cc2)CC1,104
COc1ccc(OC)c2c(=S)c3ccccc3[nH]c12,96.6

# Sample 2
# SMILES: CN([C@@H]1CCc2c(CC(=O)O)c3ccccc3n2C1)S(=O)(=O)c1ccc(F)cc1
# Effect on: cell-free assay
# Technique: competition with immobilised ligand
# Tested at: 1 µM
target,remaining binding
"BMPR2 (Homo sapiens, UniProt Q13873)",100%
"WNK3 (Homo sapiens, UniProt Q9BYP7)",86%
"NEK5 (Homo sapiens, UniProt Q6P3R8)",100%
"MARK4 (Homo sapiens, UniProt Q96L34)",100%
"SRC (Homo sapiens, UniProt P12931)",100%
"SRPK1 (Homo sapiens, UniProt Q96SB4)",100%
"LIM domain kinase 2 (LIMK2, Homo sapiens, UniProt P53671)",100%
"BMP2K (Homo sapiens, UniProt Q9NSY1)",100%
"EGFR (Homo sapiens, UniProt P00533, L858R)",93%

# Sample 3
# Target: Calcium/calmodulin-dependent protein kinase type II subunit alpha (CAMK2A, Homo sapiens, UniProt Q9UQM7)
# Sequence of UniProt Q9UQM7 (whole entry, looked up): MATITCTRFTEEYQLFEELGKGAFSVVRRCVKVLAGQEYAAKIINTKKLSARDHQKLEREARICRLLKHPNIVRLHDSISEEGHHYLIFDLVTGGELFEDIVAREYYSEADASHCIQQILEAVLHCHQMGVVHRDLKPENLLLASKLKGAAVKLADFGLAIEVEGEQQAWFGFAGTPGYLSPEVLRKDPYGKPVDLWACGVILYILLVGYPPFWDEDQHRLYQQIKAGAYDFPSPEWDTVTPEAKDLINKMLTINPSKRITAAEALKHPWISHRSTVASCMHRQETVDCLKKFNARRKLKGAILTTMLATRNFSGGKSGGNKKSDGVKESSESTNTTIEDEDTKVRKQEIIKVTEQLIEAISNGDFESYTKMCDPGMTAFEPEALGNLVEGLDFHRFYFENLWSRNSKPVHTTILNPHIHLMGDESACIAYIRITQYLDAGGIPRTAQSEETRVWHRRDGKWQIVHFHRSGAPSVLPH
# Effect on: enzyme activity
# Action: inhibitor
# Tested at: 10 µM
Structure (SMILES),inhibition
O=Cc1ccc(O)cc1O,32%
O=c1oc2cc(O)ccc2c2oc3cc(O)ccc3c12,-36%
CC1=CC[C@@H](C(C)(C)O)CC1,0.43% and -0.17%
NCC(c1ccc(O)cc1)C1(O)CCCCC1 (stereo not shown),2%
O=C[C@H](O)[C@@H](O)[C@H](O)[C@H](O)CO[C@H]1O[C@H](CO[C@H]2O[C@H](CO)[C@@H](O)[C@H](O)[C@H]2O)[C@@H](O)[C@H](O)[C@H]1O,-3%
C[N+](C)(C)CCCCCCCCCC[N+](C)(C)C,-11%
CC(C(=O)c1ccc(O)cc1O)c1ccc(O)cc1 (stereo not shown),22%
Cc1c(OCC(F)(F)F)ccnc1C[S+]([O-])c1nc2ccccc2[nH]1 (stereo not shown),-3%

# Sample 4
# Cell line: A-375
# Tested at: 100 µM
# Time: 36 h
SMILES,viability [%]
COc1ccnc(C[S+]([O-])c2nc3ccc(OC(F)F)cc3[nH]2)c1OC (stereo not shown),99.8
CCN(CC)Cc1cc(Nc2ccnc3cc(Cl)ccc23)ccc1O,14.8
Cc1cc(N)c2ccccc2[n+]1CCCCCCCCCC[n+]1c(C)cc(N)c2ccccc21,33.7
Clc1ccc(C(c2ccccc2Cl)C(Cl)Cl)cc1 (stereo not shown),-0.937
CCOc1ccccc1O[C@H](c1ccccc1)[C@H]1CNCCO1 (racemic),102

# Excerpt of the above (sample 2):
target,remaining binding
"EGFR (Homo sapiens, UniProt P00533, L858R)",93%
"BMP2K (Homo sapiens, UniProt Q9NSY1)",100%
"WNK3 (Homo sapiens, UniProt Q9BYP7)",86%
"SRC (Homo sapiens, UniProt P12931)",100%
"SRPK1 (Homo sapiens, UniProt Q96SB4)",100%
"MARK4 (Homo sapiens, UniProt Q96L34)",100%
